Results collected from several papers.
Numbered parts are unrelated; each lists some results of a single study.
UniProt P04629, sequence (whole entry, looked up): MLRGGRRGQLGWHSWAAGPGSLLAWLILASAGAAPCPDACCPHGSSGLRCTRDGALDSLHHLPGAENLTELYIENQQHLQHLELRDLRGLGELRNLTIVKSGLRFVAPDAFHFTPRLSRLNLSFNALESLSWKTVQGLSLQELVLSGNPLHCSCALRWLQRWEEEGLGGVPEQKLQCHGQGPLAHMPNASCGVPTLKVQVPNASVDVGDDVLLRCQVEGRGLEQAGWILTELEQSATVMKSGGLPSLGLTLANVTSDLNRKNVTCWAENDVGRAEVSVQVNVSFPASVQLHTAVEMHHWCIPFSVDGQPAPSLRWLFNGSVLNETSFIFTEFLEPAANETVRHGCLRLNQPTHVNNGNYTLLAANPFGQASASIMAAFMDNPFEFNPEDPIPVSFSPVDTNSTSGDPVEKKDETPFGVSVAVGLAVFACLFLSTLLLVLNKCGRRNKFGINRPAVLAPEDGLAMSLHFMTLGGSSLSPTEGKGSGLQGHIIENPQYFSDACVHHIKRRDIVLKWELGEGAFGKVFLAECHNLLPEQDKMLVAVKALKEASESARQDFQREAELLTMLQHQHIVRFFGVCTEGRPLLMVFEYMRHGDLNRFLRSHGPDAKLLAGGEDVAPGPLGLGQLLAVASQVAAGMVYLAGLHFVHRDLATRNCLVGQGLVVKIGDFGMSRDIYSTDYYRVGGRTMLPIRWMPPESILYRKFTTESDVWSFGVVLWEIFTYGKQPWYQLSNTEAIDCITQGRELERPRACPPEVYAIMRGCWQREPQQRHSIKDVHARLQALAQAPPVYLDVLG
UniProt O95819, sequence (whole entry, looked up): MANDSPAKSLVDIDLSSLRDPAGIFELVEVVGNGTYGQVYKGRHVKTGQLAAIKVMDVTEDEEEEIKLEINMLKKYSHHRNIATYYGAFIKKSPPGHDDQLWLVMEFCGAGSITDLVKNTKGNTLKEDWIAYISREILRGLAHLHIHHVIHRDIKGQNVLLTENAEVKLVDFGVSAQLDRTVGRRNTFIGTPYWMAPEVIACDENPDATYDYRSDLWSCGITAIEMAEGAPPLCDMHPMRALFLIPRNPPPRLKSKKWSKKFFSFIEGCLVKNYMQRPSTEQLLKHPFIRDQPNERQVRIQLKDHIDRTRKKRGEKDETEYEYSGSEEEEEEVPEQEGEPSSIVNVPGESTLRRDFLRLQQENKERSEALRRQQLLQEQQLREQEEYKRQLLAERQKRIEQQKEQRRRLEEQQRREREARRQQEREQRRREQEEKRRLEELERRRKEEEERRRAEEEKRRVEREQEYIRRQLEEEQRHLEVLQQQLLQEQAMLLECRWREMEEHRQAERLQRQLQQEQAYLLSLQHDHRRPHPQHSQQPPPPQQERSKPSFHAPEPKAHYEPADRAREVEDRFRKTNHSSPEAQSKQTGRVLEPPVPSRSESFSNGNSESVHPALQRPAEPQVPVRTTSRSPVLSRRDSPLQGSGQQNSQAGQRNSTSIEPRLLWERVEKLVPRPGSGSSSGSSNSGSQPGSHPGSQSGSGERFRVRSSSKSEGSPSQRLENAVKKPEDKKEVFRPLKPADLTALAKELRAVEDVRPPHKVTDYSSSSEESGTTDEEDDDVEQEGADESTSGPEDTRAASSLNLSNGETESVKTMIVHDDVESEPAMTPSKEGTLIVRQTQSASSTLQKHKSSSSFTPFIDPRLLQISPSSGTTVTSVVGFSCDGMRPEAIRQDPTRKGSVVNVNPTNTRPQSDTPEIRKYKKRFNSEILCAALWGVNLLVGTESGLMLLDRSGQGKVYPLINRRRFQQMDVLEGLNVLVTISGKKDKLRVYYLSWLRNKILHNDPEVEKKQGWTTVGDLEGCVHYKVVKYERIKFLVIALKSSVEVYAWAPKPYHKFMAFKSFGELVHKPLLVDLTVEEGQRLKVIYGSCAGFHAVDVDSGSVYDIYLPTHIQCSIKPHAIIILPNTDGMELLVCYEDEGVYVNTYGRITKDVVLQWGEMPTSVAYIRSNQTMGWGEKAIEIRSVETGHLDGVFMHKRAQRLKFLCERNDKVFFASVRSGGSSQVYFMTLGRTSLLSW
UniProt Q13188, sequence (whole entry, looked up): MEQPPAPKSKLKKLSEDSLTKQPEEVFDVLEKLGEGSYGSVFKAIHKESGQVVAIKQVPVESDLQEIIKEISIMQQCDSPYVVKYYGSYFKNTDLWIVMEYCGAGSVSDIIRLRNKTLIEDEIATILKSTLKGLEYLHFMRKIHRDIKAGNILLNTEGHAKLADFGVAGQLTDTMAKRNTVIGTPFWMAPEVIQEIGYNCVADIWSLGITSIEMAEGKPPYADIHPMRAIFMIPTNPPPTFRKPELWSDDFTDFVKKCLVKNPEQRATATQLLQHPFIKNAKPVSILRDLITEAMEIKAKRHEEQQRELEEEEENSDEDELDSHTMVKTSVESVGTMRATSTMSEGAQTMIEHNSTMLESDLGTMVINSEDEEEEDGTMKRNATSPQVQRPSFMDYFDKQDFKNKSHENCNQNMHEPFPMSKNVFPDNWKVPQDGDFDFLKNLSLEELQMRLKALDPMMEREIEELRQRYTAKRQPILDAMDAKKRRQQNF
UniProt O15075, sequence (whole entry, looked up): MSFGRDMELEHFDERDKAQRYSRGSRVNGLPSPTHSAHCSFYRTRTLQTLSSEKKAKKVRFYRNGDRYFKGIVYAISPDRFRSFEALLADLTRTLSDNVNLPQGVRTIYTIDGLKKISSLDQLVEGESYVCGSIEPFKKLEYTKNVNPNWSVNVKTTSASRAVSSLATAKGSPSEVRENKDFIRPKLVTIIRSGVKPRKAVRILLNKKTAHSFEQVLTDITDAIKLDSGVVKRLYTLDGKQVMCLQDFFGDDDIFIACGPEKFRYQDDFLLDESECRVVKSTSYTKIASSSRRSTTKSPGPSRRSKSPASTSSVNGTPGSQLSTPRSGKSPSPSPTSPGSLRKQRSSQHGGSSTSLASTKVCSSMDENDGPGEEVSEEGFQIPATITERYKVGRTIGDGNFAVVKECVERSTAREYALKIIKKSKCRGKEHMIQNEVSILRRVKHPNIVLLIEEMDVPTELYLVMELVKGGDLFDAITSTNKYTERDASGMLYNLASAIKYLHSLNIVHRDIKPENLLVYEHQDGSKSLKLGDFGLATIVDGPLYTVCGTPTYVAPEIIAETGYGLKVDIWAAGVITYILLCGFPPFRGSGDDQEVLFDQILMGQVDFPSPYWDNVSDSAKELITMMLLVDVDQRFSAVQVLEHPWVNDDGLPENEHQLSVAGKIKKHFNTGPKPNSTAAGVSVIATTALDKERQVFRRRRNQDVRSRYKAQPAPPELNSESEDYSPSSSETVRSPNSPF
UniProt O14976, sequence (whole entry, looked up): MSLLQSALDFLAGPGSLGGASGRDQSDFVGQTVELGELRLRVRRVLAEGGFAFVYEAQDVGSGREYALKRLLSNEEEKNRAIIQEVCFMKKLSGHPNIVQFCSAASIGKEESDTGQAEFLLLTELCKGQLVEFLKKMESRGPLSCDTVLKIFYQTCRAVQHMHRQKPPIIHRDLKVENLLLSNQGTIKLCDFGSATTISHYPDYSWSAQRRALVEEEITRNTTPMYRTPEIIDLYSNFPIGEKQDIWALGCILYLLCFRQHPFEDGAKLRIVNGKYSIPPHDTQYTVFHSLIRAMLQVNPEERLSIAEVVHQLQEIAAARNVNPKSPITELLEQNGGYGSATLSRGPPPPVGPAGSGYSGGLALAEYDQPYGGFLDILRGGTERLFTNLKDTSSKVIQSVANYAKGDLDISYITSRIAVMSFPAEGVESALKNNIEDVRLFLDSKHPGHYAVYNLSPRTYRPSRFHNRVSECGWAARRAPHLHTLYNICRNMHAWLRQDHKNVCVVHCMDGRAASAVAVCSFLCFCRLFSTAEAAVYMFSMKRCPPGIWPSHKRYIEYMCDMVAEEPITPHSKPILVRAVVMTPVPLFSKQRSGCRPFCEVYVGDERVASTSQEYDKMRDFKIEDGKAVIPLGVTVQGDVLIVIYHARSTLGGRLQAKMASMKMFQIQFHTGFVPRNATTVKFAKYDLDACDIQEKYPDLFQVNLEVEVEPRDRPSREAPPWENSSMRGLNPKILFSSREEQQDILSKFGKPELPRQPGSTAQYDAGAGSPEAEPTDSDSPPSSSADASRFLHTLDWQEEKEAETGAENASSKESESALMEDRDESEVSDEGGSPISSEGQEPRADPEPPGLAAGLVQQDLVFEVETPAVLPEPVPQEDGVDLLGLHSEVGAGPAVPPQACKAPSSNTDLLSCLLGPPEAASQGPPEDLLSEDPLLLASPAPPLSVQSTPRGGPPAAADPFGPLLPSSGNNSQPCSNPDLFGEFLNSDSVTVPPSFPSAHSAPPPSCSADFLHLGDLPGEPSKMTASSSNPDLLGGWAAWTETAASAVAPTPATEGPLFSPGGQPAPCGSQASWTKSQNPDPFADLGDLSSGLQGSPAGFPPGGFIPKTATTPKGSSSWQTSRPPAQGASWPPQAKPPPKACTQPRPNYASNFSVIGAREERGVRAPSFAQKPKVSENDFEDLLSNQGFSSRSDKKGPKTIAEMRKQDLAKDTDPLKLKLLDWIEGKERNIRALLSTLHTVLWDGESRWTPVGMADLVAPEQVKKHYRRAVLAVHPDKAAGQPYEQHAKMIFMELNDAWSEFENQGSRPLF
UniProt Q14012, sequence (whole entry, looked up): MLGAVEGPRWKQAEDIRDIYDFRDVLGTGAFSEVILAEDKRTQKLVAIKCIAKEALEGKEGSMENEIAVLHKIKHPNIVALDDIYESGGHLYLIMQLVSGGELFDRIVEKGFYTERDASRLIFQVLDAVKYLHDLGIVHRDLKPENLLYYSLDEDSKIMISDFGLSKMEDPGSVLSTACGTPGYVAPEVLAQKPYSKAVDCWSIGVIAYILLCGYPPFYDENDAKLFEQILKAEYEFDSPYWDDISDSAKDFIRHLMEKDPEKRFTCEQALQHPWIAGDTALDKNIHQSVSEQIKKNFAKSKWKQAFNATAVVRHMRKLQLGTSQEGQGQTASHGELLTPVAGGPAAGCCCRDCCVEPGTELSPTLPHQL

Block 1 — effect on: enzyme activity; mode: inhibitor; tested at: 0.5 µM; baseline: control
Target: Dual specificity tyrosine-phosphorylation-regulated kinase 1A (DYRK1A, Homo sapiens, UniProt Q13627)
Structure (SMILES)	remaining activity
O=C1Cc2c([nH]c3ccc(Br)cc23)-c2ccccc2N1	98.8%
c1ccc2c(-c3ccncc3)c[nH]c2c1	77.6%
COc1ccc2c(c1)c(C1=C(c3c[nH]c4ccccc34)C(=O)NC1=O)cn2CCCN(C)C	84.7%
CN(C)S(=O)(=O)c1ccc2c(c1)/C(=C/c1cc3c([nH]1)CCCC3)C(=O)N2	81.1%
COc1ccc(COc2ccc(Cc3cnc(N)nc3N)cc2OC)cc1	88.1%
CN1CCN(c2ccc3nc(-c4c(N)c5c(F)cccc5[nH]c4=O)[nH]c3c2)CC1	96.5%
O=C1NC(=O)c2c1c1c3ccccc3[nH]c1n1cncc21	89.1%
O=C(c1cc2cc(O)ccc2[nH]1)c1cc2cc(O)ccc2[nH]1	103%
COc1cccc(-c2cc(=O)c3ccccc3o2)c1N	94%

Block 2 — effect on: cell-free assay; method: competition with immobilised ligand; tested at: 1 µM
SMILES: CNCc1ccccc1-c1csc([C@@H](C)Nc2nc(C)nc3cc(OC)c(OC)cc23)c1
target	remaining binding
Mitogen-activated protein kinase kinase kinase kinase 4 (MAP4K4, Homo sapiens, UniProt O95819)	100%
Mitogen-activated protein kinase 6 (MAPK6, Homo sapiens, UniProt Q16659)	100%
Cyclin-dependent kinase 4, with cyclin D1 (CDK4, Homo sapiens, UniProt P11802)	88%
Tyrosine-protein kinase Fyn (FYN, Homo sapiens, UniProt P06241)	100%
Cyclin-dependent kinase 9 (CDK9, Homo sapiens, UniProt P50750)	100%
Calcium/calmodulin-dependent protein kinase type 1 (CAMK1, Homo sapiens, UniProt Q14012)	100%
Ephrin type-A receptor 2 (EPHA2, Homo sapiens, UniProt P29317)	76%
High affinity nerve growth factor receptor (NTRK1, Homo sapiens, UniProt P04629)	87%
Calcium/calmodulin-dependent protein kinase type 1B (PNCK, Homo sapiens, UniProt Q6P2M8)	95%
Serine/threonine-protein kinase Nek7 (NEK7, Homo sapiens, UniProt Q8TDX7)	100%
Cyclin-G-associated kinase (GAK, Homo sapiens, UniProt O14976)	88%
Serine/threonine-protein kinase DCLK1 (DCLK1, Homo sapiens, UniProt O15075)	86%
Phosphatidylinositol 4,5-bisphosphate 3-kinase catalytic subunit alpha isoform (PIK3CA, Homo sapiens, UniProt P42336, C420R)	81%
Serine/threonine-protein kinase 3 (STK3, Homo sapiens, UniProt Q13188)	85%

Block 3 — cell line: mouse MPNST tumor cells; method: high-content immunofluorescence imaging; item: nuclear SOX9; tested at: 10 µM; time: 12 h; setting: mean of 2 replicates; baseline: DMSO control; reading: higher = more nuclear SOX9
SMILES	nuclear SOX9 intensity
Clc1cccc(Cl)c1/C(=C/n1cncn1)OC1CCCCCC1	110 % of DMSO
Cc1cc(F)c(Nc2ncnc3cc(OCc4ccccc4)ccc23)cc1O	121 % of DMSO
CC(C)S(=O)(=O)N[C@H]1Cc2ccc(-c3ccc(F)nc3)cc2C1	98.7 % of DMSO
COc1cc(C(=O)N2CCC(N3CCN(C)CC3)CC2)ccc1Nc1ncc2c(n1)N(C)c1ccccc1C(=O)N2C	301 % of DMSO
Nc1ccc(-c2ccc3ncc4ccc(=O)n(-c5cccc(C(F)(F)F)c5)c4c3c2)cn1	154 % of DMSO
CN(C)[C@H]1CN(C2CCc3cccc(F)c32)C[C@@H]1c1ccc(N2CCN(S(C)(=O)=O)CC2)cc1 (stereo partly drawn)	141 % of DMSO
O=C(O)C1CN(Cc2ccc(-c3nc4cc(Cc5ccccc5F)ccc4s3)c(F)c2)C1	98.1 % of DMSO
CC[C@]12CCCN3CCc4c(n(c5ccccc45)[C@@](O)(C(=O)OC)C1)[C@@H]32	102 % of DMSO
COc1cc(OC)cc(-c2ccc3c(-c4ccc(F)cc4)[nH]nc3n2)c1	119 % of DMSO
CCC1NC(=O)c2cc(S(N)(=O)=O)c(Cl)cc2N1 (stereo not drawn)	97.1 % of DMSO
O=C(COc1ccc(Cl)cc1)N1CCN(Cc2ccc3c(c2)OCO3)CC1	106 % of DMSO
O=C(Nc1c(Cl)cncc1Cl)c1ccc(OC(F)F)c(OCC2CC2)c1	101 % of DMSO
CO[C@H]1/C=C/O[C@@]2(C)Oc3c(C)c(O)c4c(O)c(c(/C=N/N5CCN(C6CCCC6)CC5)c(O)c4c3C2=O)NC(=O)/C(C)=C\C=C\[C@H](C)[C@H](O)[C@@H](C)[C@@H](O)[C@@H](C)[C@H](OC(C)=O)[C@@H]1C	80.3 % of DMSO

Block 4 — method: Phase 2a trial; species: idiopathic pulmonary fibrosis patients
Compound: CC(C)n1cnc(-c2ccc(F)cc2)c1-c1ncc(C(=O)Nc2ccc(N3CCN(C)CC3)cc2)[nH]1
item	dose	setting	patients with adverse events
neutrophil count increased	30 mg once daily	grade 3 maximum intensity	0%
reticulocyte count increased	dose not given	grade 2 maximum intensity, all arms	0%
urinary tract infection	30 mg once daily	grade 1 maximum intensity	0%
eye disorders (SOC)	30 mg once daily	grade 4 maximum intensity	0%
bile acids increased	dose not given	grade 2 maximum intensity, all arms	0%
eye disorders (SOC)	30 mg once daily	grade 5 maximum intensity	0%
chest discomfort	30 mg once daily	grade 4 maximum intensity	0%
gamma-glutamyltransferase increased	60 mg once daily	grade 1 maximum intensity	0%
vision blurred	60 mg once daily	grade 5 maximum intensity	0%

Some of these lines once more (block 1):
Structure (SMILES)	remaining activity
CN(C)S(=O)(=O)c1ccc2c(c1)/C(=C/c1cc3c([nH]1)CCCC3)C(=O)N2	81.1%
COc1ccc(COc2ccc(Cc3cnc(N)nc3N)cc2OC)cc1	88.1%
CN1CCN(c2ccc3nc(-c4c(N)c5c(F)cccc5[nH]c4=O)[nH]c3c2)CC1	96.5%
